Measured values collected from several papers.
Compare with care: the assays were run in different laboratories. Values joined by “and” are separate records of one study, mostly repeats; a detail may differ. ± marks the error that the study gave.
PFF0160c E182D: Dihydroorotate dehydrogenase (quinone), mitochondrial (PFF0160c, Plasmodium falciparum, UniProt Q08210, E182D)
ACHE: Acetylcholinesterase (ACHE, Homo sapiens, UniProt P22303)

| SMILES | target | assay | system | setting | scale | endpoint | result |
| --- | --- | --- | --- | --- | --- | --- | --- |
| Oc1ccc2ccc3cccc4ccc1c2c34 | Aryl hydrocarbon receptor (Danio rerio, UniProt Q9YGV3) | reporter gene, agonist, luciferase reporter | ZF-4 | 41.15 µM | baseline: vehicle control | fold change | 1.5 |
| O=C(CNCC1CCCCC1)Nc1cc(C(F)(F)F)ccc1Cl | PFF0160c E182D | enzyme activity, DCIP colorimetric | – | – | baseline: E182D mutant over wild type | IC50 ratio | 9.2 |
| COc1cc(Nc2ncc(F)c(Nc3ccc4c(n3)NC(=O)C(C)(C)O4)n2)cc(OC)c1OC | Myosin-IIIb (MYO3B, Homo sapiens, UniProt Q8WXR4) | KINOMEscan | – | 10 µM | – | inhibition | 0% |
| CC(=O)N[C@@H](CSCCC=O)C(=O)O | N-acyl-aromatic-L-amino acid amidohydrolase (carboxylate-forming) (Acy3, Mus musculus, UniProt Q91XE4) | substrate, fluorescamine | – | with: Co2+ 0.1 mM | – | Km | 710 µM |
| C[N+](C)(C)[C@@H](Cc1c[nH]c(=S)[nH]1)C(=O)[O-] | Ergothioneine transport permease/ergothioneine binding protein EgtU, substrate-binding domain (egtU, Helicobacter pylori, UniProt B5Z7I3) | ITC | – | concentration not given, 30 °C, substrate-binding domain | – | binding stoichiometry | 0.773 ± 0.095 |
| COCC(=O)O[C@]1(CCN(C)CCCc2nc3ccccc3[nH]2)CCc2cc(F)ccc2[C@@H]1C(C)C | ACHE | – | biochemical | concentration not given | – | activity class | inactive |
| COc1ccc(N2C(=O)N(c3c(C)cccc3Cl)Cc3cnc(Nc4ccc(C5CCN(C)CC5)cc4OC)nc32)nc1 | MINK1 (Homo sapiens, UniProt Q8N4C8) | kinase activity, inhibitor | – | 0.5 µM, kinase MINK | – | inhibition | 5.36% |
| S=C(SSC(=S)N1CCCCC1)N1CCCCC1 | ACHE | – | biochemical | concentration not given | – | activity class | inactive |
| CN(C(=O)n1cnc(-c2ccc[n+]([O-])c2)c1)C1CCCCC1 | BRS3 (Homo sapiens, UniProt P32247) | radioligand binding | – | 50 µM | – | inhibition | 1% |
| CCc1cc(O)cc2c(/C=N/NC(=N)NCCc3ccc(Cl)cc3)c[nH]c12 | RXFP4 (Homo sapiens, UniProt Q8TDU9) | – | – | – | – | Emax | 99 ± 3% |
| Nc1ccc2c3c(cccc13)C(=O)NC2=O | Beta-lactamase TEM (bla, Escherichia coli, UniProt P62593) | inhibitor | – | – | – | Hill coefficient | 0.9 |
| O=C(c1ccc(Cl)cc1)N1CCN2C(=O)N(OC(=O)N3CCOc4ccccc43)C(=O)C2C1 (centres unmarked) | PPIA (Homo sapiens, UniProt P62937) | MS-based ABPP | SW-620 conditioned medium | 10 µM, 1 h, 37 °C | baseline: compound over DMSO, lower = more inhibition | peptide ratio | 1.57 and 0.84 |
| C#CCCCCNC(=O)CI | Thioredoxin domain-containing protein 12 (TXNDC12, Homo sapiens, UniProt O95881) | mass spectrometry profiling | Ramos cell lysate | 100 µM over 10 µM, UniProt O95881 | baseline: high over low concentration | reactivity ratio | 1.36 |
| Cc1ncsc1-c1ccc(CNC(=O)[C@@H]2C[C@@H](O)CN2C(=O)[C@@H](NC(=O)C2(F)CC2)C(C)(C)C)c(OCCOc2ccc(CN3CCN(c4cc(-c5ccccc5O)nnc4N)CC3)cc2)c1 | SMARCA2 (Homo sapiens, UniProt P51531) | degrader, immunoblot | SMARCA4 wild-type cells | 96 h, median of twelve cell lines | – | Dmax | 96% |
| CC[C@H](C)[C@H](NC(=O)CNC(=O)[C@@H](N)CCCCN)C(=O)N[C@@H](CC(C)C)C(=O)N[C@@H](CCCCN)C(=O)N[C@@H](CCCNC(=N)N)C(=O)N[C@@H](CCC(=O)O)C(=O)N[C@@H](CCCCN)C(=O)N[C@@H](CCCNC(=N)N)C(=O)N[C@@H](CC(C)C)C(=O)N[C@@H](CCCNC(=N)N)C(=O)N[C@@H](CCCNC(=N)N)C(=O)N[C@@H](CCCCN)C(=O)N[C@@H](CC(N)=O)C(=O)N[C@H](C(=O)N[C@@H](Cc1c[nH]cn1)C(=O)N[C@@H](Cc1c[nH]c2ccccc12)C(=O)N1CCC[C@H]1C(=O)N[C@@H](CCC(=O)O)C(=O)N[C@@H](CCC(=O)O)C(=O)NCC(=O)N[C@@H](CCCCN)C(=O)N[C@@H](CC(C)C)C(=O)N[C@@H](CCCNC(=N)N)C(=O)N[C@@H](CCC(=O)O)C(=O)N[C@@H](Cc1ccc(O)cc1)C(=O)N[C@@H](Cc1ccccc1)C(=O)N[C@@H](Cc1ccc(O)cc1)C(=O)N[C@@H](Cc1ccccc1)C(=O)N[C@@H](CCC(=O)O)C(=O)N[C@@H](CC(C)C)C(=O)N[C@@H](CC(=O)O)C(=O)N[C@@H](CCC(=O)O)C(=O)N[C@@H](C)C(=O)N[C@@H](CCC(=O)O)C(=O)N[C@@H](CCCNC(=N)N)C(=O)N[C@H](C(=O)N[C@@H](CC(N)=O)C(=O)N[C@H](C(=O)O)C(C)C)C(C)C)C(C)C | Serine/threonine-protein phosphatase PP1-gamma catalytic subunit (Homo sapiens, UniProt P36873) | ITC | – | 25 °C | – | ΔG | -11.5 ± 0.2 kcal/mol |
| CC[C@@H](C)[C@@H](NC(=O)[C@@H](Cc1ccc(O)cc1)NC(=O)[C@H]1CCCN1C(=O)[C@@H](CCCNC(=N)N)NC(=O)[C@H](N)Cc1c[nH]cn1)C(=O)N[C@H](C)C(=O)N[C@H](Cc1c[nH]cn1)C(=O)N[C@H](CCCNC(=N)N)C(=O)N[C@H](CCCCNC(=O)c1cccc(S(=O)(=O)F)c1)C(=O)N[C@H](Cc1ccc(O)cc1)C(=O)N[C@H](CO)C(=O)N[C@H](Cc1ccccc1)C(N)=O | Transferrin receptor protein 1 (Tfrc, Mus musculus, UniProt Q62351) | flow cytometry | RAW264.7 | 2 h, pH 6, replicate 3, unit not given | baseline: 0 h | surface TFRC expression | 0.709 |
| COc1ccc2c3c([nH]c2c1)CCN(C)CC3.O=C(O)/C=C/C(=O)O | Neuronal acetylcholine receptor; alpha9/alpha10 (Homo sapiens, UniProt Q9GZZ6+Q9UGM1) | ion current, inhibitor, two-electrode voltage clamp | Xenopus laevis oocytes | 10 µM, human receptor, with: acetylcholine 6 µM | – | recovery time constant | 9.6 ± 0.3 s |
| C[C@H]1CN(c2n[nH]c3nc(N[C@H]4CC[C@H](NS(=O)(=O)CCC(F)(F)F)CC4)ncc23)CCO1 | IRAK1 (Homo sapiens, UniProt P51617) | inhibitor, Kinobeads competition profiling | – | 0.16 µM | baseline: vehicle | relative abundance | 1.07 |
| Cc1noc(-c2cccs2)c1C(=O)NCCc1cccc(Cl)c1 | PFF0160c E182D | enzyme activity, DCIP colorimetric | – | – | baseline: E182D mutant over wild type | IC50 ratio | 6 |
| COc1cc(N)c(Cl)cc1C(=O)NC1CN2CCC1CC2 (centres unmarked) | G-protein coupled receptor family C group 5 member B (GPRC5B, Homo sapiens, UniProt Q9NZH0) | β-arrestin recruitment, TANGO luminescence, refers to: GPRC5B | – | concentration not given | baseline: basal luminescence | log2 fold change | 0.281 |
| CN1C(=O)CCS(=O)(=O)C1c1ccc(Cl)cc1 (centres unmarked) | Nuclear receptor subfamily 2 group C member 2, ligand-binding domain (Homo sapiens, UniProt P49116) | SPR imaging | – | 600 nM | – | koff | 2.37e-07 s⁻¹ |
| Nc1nc2c(ncn2[C@@H]2O[C@H](COP(=O)(O)OP(=O)(O)OP(=O)(O)O)[C@@H](O)[C@H]2O)c(=O)[nH]1 | GTP 3',8-cyclase (moaA, Staphylococcus aureus, UniProt P69848, R17K) | isothermal titration calorimetry | – | concentration not given, 25 °C, R17K mutant, anaerobic | – | binding entropy ΔS | 4.99 cal/mol/K |
| Cc1cc(NC(=O)c2cc(S(=O)(=O)N3CCCCC3)ccc2C)no1 | PFF0160c E182D | enzyme activity, DCIP colorimetric | – | – | baseline: E182D mutant over wild type | IC50 ratio | 2.9 |
| O=C(O)Cc1c[nH]cn1 | SLC6A6 (Homo sapiens, UniProt P31641, Y138A) | binding, microscale thermophoresis | – | 30.5 nM, fitted curve | higher = more binding | fraction bound | 0.000177 |
| [2H]c1c([2H])c([C@]2([2H])CCCN2C(=O)C(C)(C)Oc2ccc3cn[nH]c3c2)c([2H])c([2H])c1C([2H])([2H])[2H] | DAPK3 (Homo sapiens, UniProt O43293) | KINOMEscan | – | 1 µM | baseline: DMSO control | remaining binding | 77% |
| CN1CCN(c2cc(-c3ccncc3)c(-c3ccc4ccccc4c3)nn2)CC1 | CXCR6 (Homo sapiens, UniProt O00574) | antagonist, FLIPR | – | 10 µM | – | inhibition | 11% |

Excerpt of the above:
| SMILES | target | assay | system | setting | scale | endpoint | result |
| --- | --- | --- | --- | --- | --- | --- | --- |
| O=C(c1ccc(Cl)cc1)N1CCN2C(=O)N(OC(=O)N3CCOc4ccccc43)C(=O)C2C1 (centres unmarked) | PPIA (Homo sapiens, UniProt P62937) | MS-based ABPP | SW-620 conditioned medium | 10 µM, 1 h, 37 °C | baseline: compound over DMSO, lower = more inhibition | peptide ratio | 1.57 and 0.84 |
| CC[C@@H](C)[C@@H](NC(=O)[C@@H](Cc1ccc(O)cc1)NC(=O)[C@H]1CCCN1C(=O)[C@@H](CCCNC(=N)N)NC(=O)[C@H](N)Cc1c[nH]cn1)C(=O)N[C@H](C)C(=O)N[C@H](Cc1c[nH]cn1)C(=O)N[C@H](CCCNC(=N)N)C(=O)N[C@H](CCCCNC(=O)c1cccc(S(=O)(=O)F)c1)C(=O)N[C@H](Cc1ccc(O)cc1)C(=O)N[C@H](CO)C(=O)N[C@H](Cc1ccccc1)C(N)=O | Transferrin receptor protein 1 (Tfrc, Mus musculus, UniProt Q62351) | flow cytometry | RAW264.7 | 2 h, pH 6, replicate 3, unit not given | baseline: 0 h | surface TFRC expression | 0.709 |
